Results pooled from the literature.
Protocols differ between the studies behind these lines. Several values in a cell are separate wells, animals, samples, runs or records. Numbers after ± are the reported error.

| SMILES | assay | test system | conditions | how to read | endpoint | result |
| --- | --- | --- | --- | --- | --- | --- |
| CC(C)[C@H](C(=O)Nc1ccc(C(=O)NO)cc1)c1ccccc1 | volumetric MRI | human, left IAC schwannoma | dose not given, day 57 | – | tumour volume | 6.8 cm3 |
| CSc1ccc(C(=O)/C=C/c2cc(C)c(OC(C)(C)C(=O)O)c(C)c2)cc1 | – | db/db mice on MCD diet | oral, 30 mg/kg daily, 45 days | relative to: untreated model | NAFLD activity score | decreased |
| O=C(NC[C@H]1CN(c2ccc(N3CCOCC3=O)cc2)C(=O)O1)c1ccc(Cl)s1 | – | human mild renal impairment, plasma | 10 mg, mean, unit not given | relative to: baseline | maximum prothrombin time prolongation | 8.26 |
| CO[C@@H]1[C@@H](OC(N)=O)[C@@H](O)[C@H](Oc2ccc3c(O)c(NC(=O)c4ccc(O)c(CC=C(C)C)c4)c(=O)oc3c2C)OC1(C)C | – | Brca1 cc/cc MEFs, mouse | 12.5 µM | – | colony survival | 94.2% and 109% and 83.5% and 91.3% and 88.6% |
| Sc1ncnc2ccccc12 | CoA-CPM signal reduction, CPM fluorescence thiol | cell-free biochemical | assay interference counter-screen, together with: CoA replacing acetyl-CoA | – | IC50 | > 125 µM |
| CC(=O)Oc1cc2c(s1)CCN(C(C(=O)C1CC1)c1ccccc1F)C2 (stereo not shown) | platelet aggregation, light transmission aggregometry | human patients, platelet-rich plasma | 2 h, together with: TRAP 15 µM | – | patients with IPA above 80% | 0% |
| C[C@@H]1CCC[C@H](n2cnc(-c3cc(Cl)ccc3-n3cc(Cl)nn3)cc2=O)c2cc(ccn2)-c2c(cnn2C(F)F)NC1=O | – | pooled normal human plasma | IC1.5× aPTT, Actin FS reagent | – | concentration for aPTT prolongation | 70 nM |
| c1ccc(-c2n[nH]cc2-c2ccnc3ccccc23)nc1 | kinase binding, competitor, MIB/MS competition, item: IRE1 | Candida albicans cell lysate | 10 µM | relative to: DMSO | log2 fold change | 1.62 |
| Cc1ccc(C(=O)OCc2ccc([C@@H](CN)C(=O)Nc3ccc4cnccc4c3)cc2)c(C)c1 | tonometry | NZW rabbit, magnetic bead-induced ocular hypertension | ocular, 0.02%, 30 h | – | IOP | 33.9 mmHg |
| C[C@@H](NC(=O)N1C(=O)[C@H](Cc2ccnc(N)c2)[C@H]1C(=O)O)C1CCCCC1 | – | human | iv infusion, 0.3 mg/kg/h, 24 h | relative to: baseline | time to aPTT Emax | 84 h |
| COc1ccc(-c2nnc(S)[nH]2)cc1 | CoA-CPM signal reduction, CPM fluorescence thiol | cell-free biochemical | assay interference counter-screen, together with: CoA replacing acetyl-CoA | – | IC50 | 84 ± 5 µM |
| C[C@@H](O)CCOC(=O)C[C@@H](C)O | item: Gly | human, plasma | 60 min, log2-transformed values | – | metabolite level | 8.12 ± 0.34 µmol/L |
| Cc1n[nH]c2ccc(-c3cc(OC[C@@H](N)Cc4ccccc4)cnc3-c3ccoc3)cc12 | kinase binding, competitor, MIB/MS competition, item: ENV7 | Candida albicans cell lysate | 100 nM | relative to: DMSO | log2 fold change | -0.351 |
| CCCCCC(=O)N1CCC[C@H]1C(=O)N[C@@H](CCC1CCCCC1)C(=O)N[C@@H](CC(C)C)C(=O)NC(C)(C)C(=O)N[C@@H](CC(C)C)C(=O)N[C@@H](CC(C)C)C(=O)NC(C)(C)C(=O)NC(C)(C)C(=O)NCCC(=O)N[C@@H](C)CN(C)C | – | small unilamellar vesicles | concentration not given | – | calcein leakage | 29.5% |
| Cc1ccc(S(=O)(=O)N(CC#N)C(=O)Cc2cc(C(F)(F)F)cc(C(F)(F)F)c2)cc1 | HPLC-MS | – | pH 10.2, together with: 50 mM N-α-acetyl-lysine | – | pseudo-first-order rate constant | 6.6 h⁻¹ |
| Cn1cc(Nc2nccc(-c3ccc4c(c3)CN(C3COC3)CC[C@H]4NC(=O)c3cn(C(C)(C)C)nn3)n2)cn1 | item: Cardiac β-adrenergic Signaling | splenic B cells, Mus musculus | 30 mg/kg, together with: IgD activation | relative to: vehicle, direction not given | pathway activation z-score | 0.905 |
| C[C@H]1O[C@@H](O[C@H]2CC[C@@]3(C)[C@@H](CC[C@]4(C)[C@@H]3C=C[C@]35OC[C@@]6(CCC(C)(C)C[C@H]63)[C@@H](O)C[C@]54C)[C@]2(C)CO)[C@H](O)[C@@H](O[C@@H]2O[C@H](CO)[C@@H](O)[C@H](O)[C@H]2O)[C@H]1O | Western blot, item: Mtor | chronic-plus-binge ethanol-fed mice, liver | dose not given, low dose, unit not given | relative to: β-actin | protein level | 1.36 and 0.709 and 0.876 |

| SMILES | assay | test system | conditions | how to read | endpoint | result |
| --- | --- | --- | --- | --- | --- | --- |
| COc1ccc(-c2cncc(N[C@@H](C)c3cccc(NC(=O)c4cncc(C)c4)c3)n2)cc1OC | item: rno-miR-128-3p | rat SU5416/hypoxia model, lung | dose not given, unit not given | relative to: SU5416/hypoxia vehicle | delta delta Ct | 0.81 |
| Cl.N[C@@H](CC1=CCC(O)(c2nncnn2)C=C1)C(=O)O (stereo partly shown) | iEDDA cycloaddition | aqueous DMSO 25 % | 37 °C, together with: TCO-OH 15 mM | – | kobs | 6.1 s⁻¹ |
| COc1cc(Nc2ncc3c(n2)-c2ccc(Cl)cc2C(c2c(F)cccc2OC)=NC3)ccc1C(=O)O | – | mice, SK-N-AS neuroblastoma xenograft | oral, 20.8 mg/kg, day 7 | – | relative tumour volume T/C | 4.51 |
| O=C(O)CNC(=O)Cc1ccccc1 | – | ventricular cardiomyocytes, C57BL/6 mouse | dose not given, 0.076 s | – | sarcomere length | 1.72 µm |
| CC(c1cc2ccccc2s1)N(O)C(N)=O (stereo not shown) | – | human blood | 3 µM, together with: A23187 | – | 14-HDHA level | 564 ± 88 pg/mL |
| CC(C)NCC(O)c1ccc(O)c(O)c1 (stereo not shown) | – | ventricular cardiomyocytes, C57BL/6 mouse | dose not given, 0.468 s | – | sarcomere length | 1.63 µm |
| CNCc1cc(-c2ccccc2F)n(S(=O)(=O)c2cccnc2)c1 | gastric acid secretion | dog Heidenhain pouch | oral, 5 mg/kg, 24 h after dosing, together with: histamine | – | inhibition | 80.5% |
| O=C1CC(Nc2ccccc2)C(=O)N1c1ccc(Br)cc1 (stereo not shown) | CoA-CPM signal reduction, CPM fluorescence thiol | cell-free biochemical | assay interference counter-screen, together with: CoA replacing acetyl-CoA | – | IC50 | > 125 µM |
| OCC(O)CO | targeted LC-MS metabolomics | Mus musculus male Slc25a13 knockout, liver | drinking water, 5% w/v, 2 days | – | hexose phosphate concentration | 0.864 mM and 0.658 mM and 0.605 mM and 0.721 mM and 0.495 mM |
| O=C(Nc1ccccc1)N1CCN(c2nc(-c3ccccc3)ns2)CC1 | CoA-CPM signal reduction, CPM fluorescence thiol | cell-free biochemical | assay interference counter-screen, together with: CoA replacing acetyl-CoA | – | IC50 | > 125 µM |
| OC(CCN1CCCCC1)(c1ccccc1)C1CC2C=CC1C2 (stereo not shown) | resting-state EEG | healthy elderly humans | oral, 2 mg, eyes closed, LS mean | – | power, theta EEG, Fz-Cz | 3.5 µV² |
| C[C@H](Oc1ccc(Br)cc1-c1ccon1)C(=O)O | muscle velocity recovery cycle | human, tibialis anterior muscle | 600 mg once daily, first response peak at 15 Hz, multiple ascending dose | – | difference from placebo | 3.59% |
| NC(=O)c1cnc2[nH]ccc2c1N[C@@H]1[C@@H]2CC3C[C@H]1C[C@@](O)(C3)C2 | flow cytometry | Japanese healthy men, blood | oral, 10 mg twice daily, 72 h after day 7 dose | relative to: baseline | CD8+CD28+ naive T-cell change | -1.87% |
| O=C1O[C@H]([C@@H](O)CO)C(O)=C1O | hydroxyl radical scavenging | – | 120 µM | – | inhibition | 47.9% |
| CC(C)[C@H](NC(=O)[C@H](Cc1ccc(O)cc1)NC(=O)[C@H](Cc1ccc(O)cc1)NC(=O)[C@@H]1CCCN1C(=O)[C@H](CCC(=O)O)NC(=O)[C@H](CCC(=O)O)NC(=O)[C@H](Cc1c[nH]c2ccccc12)NC(=O)[C@@H]1CCCN1C(=O)[C@@H](NC(=O)[C@H](CCC(N)=O)NC(=O)c1ccc2c(c1)C(=O)OC21c2ccc(O)cc2Oc2cc(O)ccc21)C(C)C)C(=O)N[C@H](C(=O)N[C@@H](CCCCN)C(=O)N[C@@H](CCCCN)C(=O)N[C@@H](CO)C(=O)N[C@@H](CO)C(=O)NCC(=O)NCC(N)=O)C(C)C | surgeon confidence in nerve | human head and neck surgery, nerves | 500 mg, slightly improved | relative to: white light | share of responses | 28.6% |
| N=C(N/N=C/c1ccccc1)SC1CC(=O)N(c2ccc(Br)cc2)C1=O (stereo not shown) | CoA-CPM signal reduction, CPM fluorescence thiol | cell-free biochemical | assay interference counter-screen, together with: CoA replacing acetyl-CoA | – | IC50 | > 125 µM |
| N#CCC1CCN(c2nc(Nc3ccc(N4CCC(O)CC4)cc3)c3c(=O)[nH]ncc3n2)CC1 | Olink multiplex | human, serum | 20 mg, day 15, unit not given | relative to: baseline | IL-18 level change | -1.02 |

Some of these lines once more:
| SMILES | assay | test system | conditions | how to read | endpoint | result |
| --- | --- | --- | --- | --- | --- | --- |
| OC(CCN1CCCCC1)(c1ccccc1)C1CC2C=CC1C2 (stereo not shown) | resting-state EEG | healthy elderly humans | oral, 2 mg, eyes closed, LS mean | – | power, theta EEG, Fz-Cz | 3.5 µV² |
| C[C@H](Oc1ccc(Br)cc1-c1ccon1)C(=O)O | muscle velocity recovery cycle | human, tibialis anterior muscle | 600 mg once daily, first response peak at 15 Hz, multiple ascending dose | – | difference from placebo | 3.59% |
| NC(=O)c1cnc2[nH]ccc2c1N[C@@H]1[C@@H]2CC3C[C@H]1C[C@@](O)(C3)C2 | flow cytometry | Japanese healthy men, blood | oral, 10 mg twice daily, 72 h after day 7 dose | relative to: baseline | CD8+CD28+ naive T-cell change | -1.87% |
